Experimental data of several laboratories.
Lines come from different studies, so protocols differ. Values joined by “and” are separate records of one study, mostly repeats; a detail may differ.
Target: Ephrin type-A receptor 8 (EPHA8, Homo sapiens, UniProt P29322)

For `Cc1cccc(O[C@H]2CCC[C@@H](C(C)CNCc3ccncc3)C2)c1` (relative stereo), the inhibition was -2% (cell-free assay; 1 µM).
`Cc1ccc(-c2c(/C=C(\C#N)C(=O)NC(C)C)n(CCCO)c3ncnc(N)c23)cc1` gave a remaining binding of 66% (cell-free assay, competition with immobilised ligand; 1 µM).
With `COc1ccc(NC(=O)Nc2ccc3c(c2)C(=O)N(C(C)CO)CC(C)C(CN(C)Cc2ccc4c(c2)OCO4)O3)cc1` (stereo not drawn) the remaining activity was 96% (kinase activity, KinaseProfiler; 0.03 µM, species human; baseline: control).
Under “activity vs control”, `CNC(=O)C[C@H](Cc1ccc(C#N)cc1)NC(=O)c1cc(-c2ccc(CN[C@H](C)c3ccc(C)cc3)o2)ccc1Cl` is recorded as 106% (enzyme activity, inhibitor; 1 µM).
With `CN1CCN(Cc2ccc(-c3ccc(CO[C@H]4CCC[C@@H]4NC(=O)c4cc(-c5cnn(C)c5)cnc4N)cc3)cc2)CC1` the inhibition was -4% (enzyme activity, inhibitor; 0.1 µM).
`C=CC(=O)N1CCc2ccc(-n3c(=O)ccc4cnc5ccc(-c6cnn(C)c6)cc5c43)cc21` gave a remaining binding of 96% (KINOMEscan; 1 µM; baseline: DMSO control).
`O=C=[N][Ru-4]123([n]4c5ccc(O)cc5c5c6c(c7cc(F)c[n+]1c7c54)C(=O)NC6=O)[S+]1CC[S+]2CC[S+]3CC1` (stereo not drawn) gave a remaining activity of 134% (enzyme activity; 100 nM, human enzyme, added: 10 µM ATP; baseline: untreated).
With `CCn1cc(C(=O)O)c(=O)c2c(N)c(F)c(NC3CCCCC3)cc21` the inhibition was 2.9% (kinase activity; 0.1 µM, added: ATP at Km).
With `C=CC(=O)N1Cc2nc(-c3cc(-c4cc(Cl)cnc4Cl)c(F)cc3F)n(-c3ccncn3)c2C1` the inhibition was 15.9% (cell-free assay; 1 µM).
`CCN1CCN(Cc2ccc(C(=O)Nc3ccc(C)c(NCc4cnc5[nH]ccc5c4OC)c3)cc2C(F)(F)F)CC1` gave a remaining binding of 1.4% (binding, competition with immobilised ligand; 1 µM).
`COc1c(Cl)cccc1Nc1c(-c2ccncc2C#C[C@@]2(C)CCCN2C(=O)/C=C/CN(C)C)[nH]c2c1C(=O)NCC2` gave a remaining binding of 87% (cell-free assay, competition with immobilised ligand; 3 µM).
The remaining binding of `Cc1cnc2nc1Nc1cccc(c1)COC/C=C/COCc1cc(ccc1OCCN1CCOCC1)N2` is reported as 97% (binding; 0.1 µM).
With `C=CC(=O)Nc1cccc(-c2cnc3[nH]cc(C(=O)NC(C)(C)C)c3n2)c1` the inhibition was 6% and 4% (kinase activity; 0.1 µM).
`NC(=O)[C@@H](O)C[C@H]1CCc2sc3ncnc(O[C@H]4CC[C@H](N5CCOCC5)CC4)c3c21` gave an inhibition of 21% (enzyme activity, inhibitor; 10 µM).
`Nc1ncc2c(n1)-c1c([nH]c3ccc(C4=CCOCC4)cc13)CCC2` has a remaining binding of 100% (binding, competition with immobilised ligand; 1 µM).
